# Assay results pooled from the literature.
# Each numbered part is a random draw from the data of one study; scales do not carry over between parts.

# Set 1 — technique: aptamer microarray, sandwich; form: DNA with 2'F-ANA; sample: in vitro; tested at: 200 nM; together with: Cy3 exosite-II aptamer, 400 nM; reading: higher = stronger binding; oligonucleotide: GGTTGGTGTGGTTGG
# Target: Prothrombin, mature alpha-thrombin (F2, Homo sapiens, UniProt P00734)
# Notes: whole 15-mer aptamer, many near background
Modification,mean fluorescence intensity
2'F-ANA at 3 4 7 9 10 11 14 15,223 a.u.
2'F-ANA at 3 4 7 10 12 15,480 a.u.
2'F-ANA at 1 4 7 8 10 13 15,53.6 a.u.
2'F-ANA at 1 2 3 4 6 8 9 10 11 12,70.1 a.u.
2'F-ANA at 2 3 11 13 15,640 a.u.
2'F-ANA at 2 4 6 7 10 11 12 14,58.8 a.u.
2'F-ANA at 2 3 4 6 8 9 11 15,409 a.u.
2'F-ANA at 1 3 4 5 6 7 8 9 10 12 15,59.5 a.u.
2'F-ANA at 3 5 7 8 14,81.6 a.u.
2'F-ANA at 2 8 10 12 13 14 15,82.2 a.u.
2'F-ANA at 1 3 4 8 12 13 14,88.6 a.u.
2'F-ANA at 1 2 4 6 7 8 12 13,237 a.u.
2'F-ANA at 1 6 10 13 14 15,50.3 a.u.
2'F-ANA at 1 3 4 9 13 14,60.1 a.u.
2'F-ANA at 1 3 8 14,118 a.u.
2'F-ANA at 3 4 8 9 11 12 13,626 a.u.
2'F-ANA at 2 4 5 6 9 12 14,55.5 a.u.
2'F-ANA at 6 11 12 13,641 a.u.
2'F-ANA at 1 3 6 7 8 10 13 15,78.3 a.u.
2'F-ANA at 4 5 6 10 12 14,46.1 a.u.

# Set 2 — technique: universal PBM; form: double-stranded DNA, one strand shown; sample: in vitro; tested at: not given; reading: higher = stronger binding
# Target: Sal-like protein 4, full length isoform B (SALL4, Homo sapiens, UniProt Q9UJQ4-2, residues 1-616)
# Notes: 8-mer, flanks averaged, mean of replicates
# Target sequence (chain): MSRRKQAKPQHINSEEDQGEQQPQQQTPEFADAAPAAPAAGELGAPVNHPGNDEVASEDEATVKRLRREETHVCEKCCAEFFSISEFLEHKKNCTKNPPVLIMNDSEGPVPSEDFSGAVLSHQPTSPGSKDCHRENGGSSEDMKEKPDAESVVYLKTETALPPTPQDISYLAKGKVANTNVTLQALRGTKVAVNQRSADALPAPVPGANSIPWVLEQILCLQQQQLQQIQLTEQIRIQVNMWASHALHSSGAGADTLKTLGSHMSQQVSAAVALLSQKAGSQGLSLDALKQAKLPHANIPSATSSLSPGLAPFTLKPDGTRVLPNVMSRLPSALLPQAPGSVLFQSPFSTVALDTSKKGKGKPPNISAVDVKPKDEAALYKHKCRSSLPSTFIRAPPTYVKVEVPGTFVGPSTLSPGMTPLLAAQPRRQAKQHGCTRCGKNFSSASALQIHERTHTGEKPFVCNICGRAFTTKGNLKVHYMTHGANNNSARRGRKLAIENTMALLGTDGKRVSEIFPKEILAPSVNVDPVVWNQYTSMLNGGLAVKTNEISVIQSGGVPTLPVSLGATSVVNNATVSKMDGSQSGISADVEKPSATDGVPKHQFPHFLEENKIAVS
Oligonucleotide,E-score
ACCTATGC,0.0562
ACCCCCCT,-0.405
AAAAGCAA,0.186
ATTTTAAA,0.335
CACAAGGC,-0.113
CAAACAGA,-0.0342
CAGGCTCC,-0.321
TGCATTAA,0.242
GTGAGAAA,0.117
AAAACCTT,0.0583
ACAGCTCG,-0.155
TCTACAGA,0.0196
ACCAGGAA,-0.112
CAGTGTGC,-0.231
ATCCGGGA,-0.235
CTATTCGC,0.0533
AGAGAAAA,0.0761
AAGACAAA,0.188
ATCCTCCA,0.0638
ACATAAGC,0.186
AGATTGAT,0.0764
CCGAGCGA,-0.257
CCCTAGTC,-0.153
CTAACCGC,-0.13

# Set 3 — technique: RNAcompete; form: RNA; sample: in vitro; tested at: 20 nM; notes: 7-mer, probes averaged, single round; reference: mean of 7-mers; reading: higher = stronger binding
# Target: PABPC1L2, full length, GST fusion (mouse, UniProt A0ABA7IW68)
# Construct (chain): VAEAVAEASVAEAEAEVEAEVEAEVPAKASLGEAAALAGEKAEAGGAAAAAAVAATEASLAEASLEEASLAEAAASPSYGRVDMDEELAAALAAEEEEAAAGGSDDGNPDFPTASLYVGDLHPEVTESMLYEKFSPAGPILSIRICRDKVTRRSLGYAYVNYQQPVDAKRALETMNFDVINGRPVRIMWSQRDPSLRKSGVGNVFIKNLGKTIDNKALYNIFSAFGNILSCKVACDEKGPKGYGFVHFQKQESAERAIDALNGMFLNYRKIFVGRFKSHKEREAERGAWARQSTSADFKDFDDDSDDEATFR
Oligonucleotide,7-mer Z-score
GUUUUUA,-0.195
GUGUCGG,-0.00652
GAGGUAU,-0.106
CGACAGA,0.0551
UACACAU,-0.166
GGUAAGA,0.0442
GUUCUUG,-0.405
GUACGUA,-0.191
GCCCGAG,-0.231
UCACAGG,-0.0826
AAACCAA,1.08
AUUGAAA,0.441
GAUUUCG,-0.378
ACGGCCU,-0.0844
UGGCACG,-0.0518
CGUUUCC,-0.44
CGCUAAG,-0.237
CCACGUA,-0.0953

# Set 4 — technique: RNA Bind-n-Seq; form: RNA; sample: in vitro; tested at: 365 nM; reference: no-protein control; reading: higher = stronger binding
# Target: RNA binding protein fox-1 homolog 2, RRM domain, GST-SBP tag (RBFOX2, Homo sapiens, UniProt O43251-10, residues 100-194)
# Notes: natural RNA segment, single round, ends assumed
# Construct (chain): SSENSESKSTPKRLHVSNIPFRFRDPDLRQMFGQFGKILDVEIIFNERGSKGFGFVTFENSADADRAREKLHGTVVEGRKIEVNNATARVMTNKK
Oligonucleotide,RBNS enrichment (R)
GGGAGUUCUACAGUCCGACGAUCAGCAACGCAAUCCACUCCAUGCUGACUGGCACCAGACAGUGAGCGGCUCAGGAGUGAUGGAAAGCGGGGCCACCACGCCAGGAAGCAACUCCCUCUGCAGCGCUCGUCUGUGGAAUUCUCGGGUGCCAA,0.281
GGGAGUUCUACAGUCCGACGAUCAUAAAAUUUAGUUCUUAGCUCUUGAACAGAAGCCUAAAAUUCCUGGUUCUCUCAGGGCUUCGCCUUCAAGGGUUCUGGAGGAGGGAAGGGUCUGCAGGUUCCAUGGGUGAUGGAAUUCUCGGGUGCCAA,0.736
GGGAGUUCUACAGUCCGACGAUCGUGCAUGCUUUUUUUCUUUUUGCCGUGAGGACAGUUGAAUUUGGGGCAUUUUUCUACAAGAAGCAGUCAGCCUUCUCUCCCCCAUAAGGACUGGCUGUAACCUUAAGCCCUGGAAUUCUCGGGUGCCAA,3.33
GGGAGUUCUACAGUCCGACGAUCAGAAUAUUUUUUUUUUGAGCAUGGCUAGUGGAUUUAAAACAACACAUACCUGUCACUGCUGGAGUCAAACUUAUAAAAAGCCUUAAGUGGAAAGUGUUCCAGACGGAGACUGGAAUUCUCGGGUGCCAA,0.484
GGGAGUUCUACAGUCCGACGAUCUGCUGGAAAUAAGGUAUAAUUUGUAUUUUGCAGACAAUUCAGUAAAGUUACUGGCUUUCUUAGUGAUACAGUGUCUGUCGUGCGUUUUUUUUUUUUAAUUAAUGUUUUGCUGGAAUUCUCGGGUGCCAA,0.695
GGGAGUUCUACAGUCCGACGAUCAAUUCAUUUUUAUGAAUAAAUCUCUUCUUUCUCAUGGUAAAUGUGGCUUGUGCCACUCAAACACUAGUGAAAGGGUAUGUACAACCGCAACAUCAGGCCAGGACACCAUUUGGAAUUCUCGGGUGCCAA,0.3
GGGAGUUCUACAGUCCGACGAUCCAGGGCAGGCUCAGACCACUCGCUUCUUUCAGAUCUUUCUUGCAAUUAUGAUAACAUGAGAUUUGCUGUUGUGCUUUUAGAGAAAAGUCUGGACUCAGCCACAAACUCUAUGGAAUUCUCGGGUGCCAA,0.405
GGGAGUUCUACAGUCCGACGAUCGAACCCAAAGCUAGGGCCACCCCUGCACUUAGGCCUUGGCUGAAGAUCUUGAGACUGGUGUUUCCGUGGUCAUUGGUGACAGGAUGUGUGCGCUCGAGUGUGUAAGUGUGUGGAAUUCUCGGGUGCCAA,10.8

# Set 5 — technique: RNA Bind-n-Seq; form: RNA; sample: in vitro; tested at: 20 nM; notes: 6-mer, flanks averaged, single round; together with: 150 mM LiCl; reference: input library; reading: higher = stronger binding
# Target: TAR DNA-binding protein 43, full length, His tag (TARDBP, Homo sapiens, UniProt Q13148, residues 1-414)
Oligonucleotide,6-mer enrichment (R)
CACGGU,0.891
ACGAAU,0.866
GAAAAU,0.881
UCCGUC,0.887
CUAGCA,0.827
UCGUGC,0.93
GGUCGC,1
GUUCCC,1.03
GAGCGA,0.986
GAAACG,0.879
CGCUGG,0.929
CCUUAC,0.957
UACUUA,0.912
UGACAU,0.922
GCCUGG,1.01
UCUUGG,0.995
GCGAAU,0.941
